Experimental data pooled from the literature.
Each numbered part is a random draw from the data of one study; scales do not carry over between parts.
UniProt Q8NG66, sequence (whole entry, looked up): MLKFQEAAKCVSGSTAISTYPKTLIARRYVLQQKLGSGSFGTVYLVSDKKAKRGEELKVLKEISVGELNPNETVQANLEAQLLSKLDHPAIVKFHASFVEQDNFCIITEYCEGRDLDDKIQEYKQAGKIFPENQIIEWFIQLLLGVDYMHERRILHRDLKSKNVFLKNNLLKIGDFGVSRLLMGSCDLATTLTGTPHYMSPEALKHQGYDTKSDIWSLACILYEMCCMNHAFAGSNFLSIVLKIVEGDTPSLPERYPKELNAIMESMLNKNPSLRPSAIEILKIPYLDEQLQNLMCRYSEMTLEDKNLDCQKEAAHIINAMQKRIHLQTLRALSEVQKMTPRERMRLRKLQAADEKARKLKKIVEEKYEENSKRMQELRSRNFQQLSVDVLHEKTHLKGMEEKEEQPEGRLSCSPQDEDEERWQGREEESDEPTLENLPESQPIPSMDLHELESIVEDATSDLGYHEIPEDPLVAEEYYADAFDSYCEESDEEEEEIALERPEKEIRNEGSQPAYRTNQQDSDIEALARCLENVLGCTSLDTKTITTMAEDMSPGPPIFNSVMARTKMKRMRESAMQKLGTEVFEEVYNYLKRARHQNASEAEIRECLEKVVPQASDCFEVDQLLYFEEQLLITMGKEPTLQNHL
UniProt Q16539, sequence (whole entry, looked up): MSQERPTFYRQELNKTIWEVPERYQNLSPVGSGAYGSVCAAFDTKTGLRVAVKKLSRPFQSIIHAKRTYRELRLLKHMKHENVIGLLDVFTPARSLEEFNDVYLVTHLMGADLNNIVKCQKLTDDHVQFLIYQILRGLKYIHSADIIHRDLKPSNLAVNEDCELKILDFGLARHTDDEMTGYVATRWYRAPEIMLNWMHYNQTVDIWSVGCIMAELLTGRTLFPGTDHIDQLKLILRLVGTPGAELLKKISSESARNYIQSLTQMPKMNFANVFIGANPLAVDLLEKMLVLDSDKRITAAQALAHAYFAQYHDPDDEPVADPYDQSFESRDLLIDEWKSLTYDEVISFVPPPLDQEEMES
UniProt O94768, sequence (whole entry, looked up): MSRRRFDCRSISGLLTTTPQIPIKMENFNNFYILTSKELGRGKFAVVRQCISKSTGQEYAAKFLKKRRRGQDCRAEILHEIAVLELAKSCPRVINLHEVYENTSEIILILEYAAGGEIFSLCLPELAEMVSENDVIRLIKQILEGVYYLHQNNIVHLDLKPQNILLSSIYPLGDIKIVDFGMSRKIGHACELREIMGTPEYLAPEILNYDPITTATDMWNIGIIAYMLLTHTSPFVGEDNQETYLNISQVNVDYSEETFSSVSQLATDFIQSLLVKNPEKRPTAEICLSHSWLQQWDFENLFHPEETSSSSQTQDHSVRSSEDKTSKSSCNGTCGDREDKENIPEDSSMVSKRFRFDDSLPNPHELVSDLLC
UniProt P50750, sequence (whole entry, looked up): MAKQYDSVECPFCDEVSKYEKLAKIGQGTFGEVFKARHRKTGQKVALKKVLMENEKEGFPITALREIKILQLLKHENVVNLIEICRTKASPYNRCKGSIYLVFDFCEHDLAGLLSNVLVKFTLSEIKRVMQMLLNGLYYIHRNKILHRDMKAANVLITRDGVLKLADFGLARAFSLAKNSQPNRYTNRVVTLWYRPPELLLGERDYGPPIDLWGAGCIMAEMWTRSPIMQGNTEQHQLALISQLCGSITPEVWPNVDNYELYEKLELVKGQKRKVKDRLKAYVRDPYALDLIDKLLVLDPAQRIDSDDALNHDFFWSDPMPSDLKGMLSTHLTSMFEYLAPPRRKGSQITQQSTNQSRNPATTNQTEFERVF
UniProt Q00536, sequence (whole entry, looked up): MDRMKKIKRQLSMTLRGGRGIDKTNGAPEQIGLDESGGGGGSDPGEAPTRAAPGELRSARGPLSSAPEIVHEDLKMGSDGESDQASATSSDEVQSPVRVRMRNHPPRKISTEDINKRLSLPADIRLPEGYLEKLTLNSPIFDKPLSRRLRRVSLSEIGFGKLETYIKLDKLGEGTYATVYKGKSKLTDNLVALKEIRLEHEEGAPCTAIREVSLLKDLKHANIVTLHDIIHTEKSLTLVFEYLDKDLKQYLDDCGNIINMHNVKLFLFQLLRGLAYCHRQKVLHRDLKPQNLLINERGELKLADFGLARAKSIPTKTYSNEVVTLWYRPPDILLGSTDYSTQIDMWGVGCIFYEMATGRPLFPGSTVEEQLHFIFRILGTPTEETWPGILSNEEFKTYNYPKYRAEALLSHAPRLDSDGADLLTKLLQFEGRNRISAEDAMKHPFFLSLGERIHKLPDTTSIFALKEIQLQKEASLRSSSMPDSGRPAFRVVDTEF
UniProt P0C264, sequence (whole entry, looked up): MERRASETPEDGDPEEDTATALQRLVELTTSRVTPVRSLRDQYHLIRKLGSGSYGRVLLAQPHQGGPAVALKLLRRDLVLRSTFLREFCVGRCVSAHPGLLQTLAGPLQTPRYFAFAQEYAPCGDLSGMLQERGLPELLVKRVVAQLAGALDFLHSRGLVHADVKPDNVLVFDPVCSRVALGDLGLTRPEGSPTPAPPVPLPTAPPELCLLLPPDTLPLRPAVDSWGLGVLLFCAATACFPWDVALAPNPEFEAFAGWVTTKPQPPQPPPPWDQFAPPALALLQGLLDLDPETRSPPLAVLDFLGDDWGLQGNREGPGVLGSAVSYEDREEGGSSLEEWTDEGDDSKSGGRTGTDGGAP
UniProt O75676, sequence (whole entry, looked up): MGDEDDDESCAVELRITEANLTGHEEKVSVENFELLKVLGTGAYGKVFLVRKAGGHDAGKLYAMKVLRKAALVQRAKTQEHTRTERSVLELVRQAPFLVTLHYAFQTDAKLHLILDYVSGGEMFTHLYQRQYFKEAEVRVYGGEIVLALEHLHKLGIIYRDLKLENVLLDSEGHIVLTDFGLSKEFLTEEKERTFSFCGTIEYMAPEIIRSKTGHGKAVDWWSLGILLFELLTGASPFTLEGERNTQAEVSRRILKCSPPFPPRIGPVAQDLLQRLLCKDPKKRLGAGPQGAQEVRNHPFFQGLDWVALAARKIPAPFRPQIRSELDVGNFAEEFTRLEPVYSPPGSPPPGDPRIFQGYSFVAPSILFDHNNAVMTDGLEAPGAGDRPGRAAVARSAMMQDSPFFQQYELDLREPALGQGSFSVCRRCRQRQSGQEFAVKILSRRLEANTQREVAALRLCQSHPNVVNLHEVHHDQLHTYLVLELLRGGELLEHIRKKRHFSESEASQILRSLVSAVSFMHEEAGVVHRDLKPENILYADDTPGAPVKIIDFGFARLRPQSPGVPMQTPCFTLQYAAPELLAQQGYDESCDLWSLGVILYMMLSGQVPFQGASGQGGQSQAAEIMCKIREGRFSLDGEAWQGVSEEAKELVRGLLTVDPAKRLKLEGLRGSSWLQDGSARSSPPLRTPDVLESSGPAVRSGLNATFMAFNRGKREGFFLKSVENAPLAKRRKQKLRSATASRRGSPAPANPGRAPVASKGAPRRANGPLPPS

Block 1 — observed: thermal unfolding; method: differential scanning fluorimetry; tested at: 5.5 µM; reading: higher = more unfolded
SMILES: C[C@@H]1CN(c2ccc(-c3cc(C(=O)NCCOCCOCCOCCOCCNC(=O)Cn4cc(-c5[nH]cc(C(=O)N[C@@H](CC(N)=O)c6ccc(F)c(Cl)c6)c5-c5ccc(Cl)cc5F)cn4)ccc3F)cc2NC(=O)c2c[nH]c(=O)cc2C(F)(F)F)C[C@H](C)N1C
DCAF1: DDB1- and CUL4-associated factor 1 (DCAF1, Homo sapiens, UniProt Q9Y4B6)
UniProt Q9Y4B6, sequence (whole entry, looked up): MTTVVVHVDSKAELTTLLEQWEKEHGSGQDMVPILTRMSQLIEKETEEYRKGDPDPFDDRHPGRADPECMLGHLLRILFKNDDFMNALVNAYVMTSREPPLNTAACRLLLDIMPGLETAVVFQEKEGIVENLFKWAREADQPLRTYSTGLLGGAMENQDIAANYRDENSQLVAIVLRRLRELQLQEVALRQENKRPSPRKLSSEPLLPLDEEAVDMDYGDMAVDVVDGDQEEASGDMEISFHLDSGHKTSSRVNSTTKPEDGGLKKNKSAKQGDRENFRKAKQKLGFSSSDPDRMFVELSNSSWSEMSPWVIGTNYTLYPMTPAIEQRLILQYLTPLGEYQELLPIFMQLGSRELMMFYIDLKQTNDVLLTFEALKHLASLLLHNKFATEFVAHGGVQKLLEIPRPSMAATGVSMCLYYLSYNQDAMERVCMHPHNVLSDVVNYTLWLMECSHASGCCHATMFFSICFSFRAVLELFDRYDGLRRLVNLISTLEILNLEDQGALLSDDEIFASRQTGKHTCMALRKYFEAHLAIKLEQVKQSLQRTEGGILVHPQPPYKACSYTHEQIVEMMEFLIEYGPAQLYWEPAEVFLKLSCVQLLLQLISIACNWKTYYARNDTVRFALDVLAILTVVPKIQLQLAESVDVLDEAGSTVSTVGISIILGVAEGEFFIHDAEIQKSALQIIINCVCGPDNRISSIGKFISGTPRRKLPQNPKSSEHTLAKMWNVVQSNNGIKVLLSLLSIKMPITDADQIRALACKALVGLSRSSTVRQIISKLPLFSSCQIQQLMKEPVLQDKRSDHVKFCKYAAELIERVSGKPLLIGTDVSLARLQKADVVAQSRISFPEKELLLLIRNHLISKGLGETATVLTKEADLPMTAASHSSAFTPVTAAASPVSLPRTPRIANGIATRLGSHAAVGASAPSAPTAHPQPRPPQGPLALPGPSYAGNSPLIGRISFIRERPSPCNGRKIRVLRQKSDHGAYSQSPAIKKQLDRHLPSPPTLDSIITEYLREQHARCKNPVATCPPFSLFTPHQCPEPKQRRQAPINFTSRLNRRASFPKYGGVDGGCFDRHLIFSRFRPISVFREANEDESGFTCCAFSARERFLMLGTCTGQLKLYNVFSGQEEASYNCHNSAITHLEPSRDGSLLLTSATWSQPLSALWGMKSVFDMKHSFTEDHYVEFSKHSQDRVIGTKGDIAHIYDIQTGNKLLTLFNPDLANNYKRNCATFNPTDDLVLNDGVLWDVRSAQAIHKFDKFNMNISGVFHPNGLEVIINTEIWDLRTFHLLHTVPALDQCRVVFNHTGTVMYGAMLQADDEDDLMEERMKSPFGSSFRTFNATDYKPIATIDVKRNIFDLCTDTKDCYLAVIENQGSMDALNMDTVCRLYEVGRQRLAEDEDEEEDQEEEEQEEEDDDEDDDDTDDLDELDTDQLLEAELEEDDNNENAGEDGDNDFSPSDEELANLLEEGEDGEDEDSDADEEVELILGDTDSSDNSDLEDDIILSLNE
WDR5: WD repeat-containing protein 5 (WDR5, Homo sapiens, UniProt P61964)
For DCAF1; 54.01 °C: “SYPRO Orange fluorescence” read 17800 a.u.
The “SYPRO Orange fluorescence” was 43600 a.u. (WDR5; 88.41 °C).
It gave 13000 a.u. for “SYPRO Orange fluorescence” (WDR5; 56.01 °C).
WDR5; 66.01 °C — “SYPRO Orange fluorescence”: 7300 a.u.
The “SYPRO Orange fluorescence” was 50300 a.u. (DCAF1; 74.01 °C).
DCAF1; 82.41 °C — “SYPRO Orange fluorescence”: 42200 a.u.
WDR5; 66.21 °C — “SYPRO Orange fluorescence”: 7250 a.u.
The “SYPRO Orange fluorescence” was 14200 a.u. (WDR5; 40.4 °C).

Block 2 — organism: Arabidopsis thaliana; strain: Col-0; tested at: 12.5 µg/mL; notes: seed germination
For `CCCN1C(=O)C(O)(C(=O)O)Oc2cc(F)ccc21` (stereo not shown), the root length was 0.823 cm.
`O=C(O)C1(O)Oc2cc(Br)ccc2N(Cc2ccccc2)C1=O` (stereo not shown) gave a root length of 0.939 cm.
`O=C(O)C1(O)Oc2cc(F)ccc2N(Cc2ccccc2)C1=O` (stereo not shown) gave a root length of 0.316 cm.
For `CCN1C(=O)C(O)(C(=O)O)Oc2cc(F)ccc21` (stereo not shown), the root length was 0.836 cm.
For `O=C(O)C1(O)Oc2ccccc2N(Cc2ccccc2)C1=O` (stereo not shown), the root length was 1.25 cm.
`CC(C)=CCN1C(=O)C(O)(C(=O)O)Oc2cc(F)ccc21` (stereo not shown) gave a root length of 1.14 cm.
`Cc1ccc2c(c1)OC(O)(C(=O)O)C(=O)N2Cc1ccccc1` (stereo not shown) gave a root length of 1.08 cm.
The root length of `CN1C(=O)C(O)(C(=O)O)Oc2cc(F)ccc21` (stereo not shown) is reported as 0.919 cm.

Block 3 — method: NanoBRET; tested at: 1 µM
SMILES: COc1cc(-c2nc3ccc(C(=O)NCCCN(C)C)cc3n2C2CCC2)cc(OC)c1OC
For STK17B (Homo sapiens, UniProt O94768): target occupancy read 4.23%.
For NEK11 (Homo sapiens, UniProt Q8NG66): target occupancy read -0.47%.
RPS6KA4 (Homo sapiens, UniProt O75676) — target occupancy: 3.16%.
It gave 1.29% for target occupancy (FES (Homo sapiens, UniProt P07332)).
The target occupancy was -2.75% (SBK3 (Homo sapiens, UniProt P0C264)).
The target occupancy was 2.43% (Cyclin-dependent kinase 9, with cyclin K (CDK9, Homo sapiens, UniProt P50750)).
The target occupancy was -7.88% (MAPK14 (Homo sapiens, UniProt Q16539)).
Cyclin-dependent kinase 16, with cyclin Y (CDK16, Homo sapiens, UniProt Q00536) — target occupancy: -1.72%.

Further values, each from its own experiment
With `Cn1cc(-c2cccc(CN3CCC4(CC3)COc3c4ccc4c3CN([C@H]3CCC(=O)NC3=O)C4=O)c2)cn1` the bioavailability was 50.1% (cynomolgus monkey, plasma; oral, 3.02 mg/kg).
